# Published values collected from several papers.
# Several values in a cell are separate wells, animals, samples, runs or records. Numbers after ± are the reported error.
# U2AF2: U2AF2 148-342 (Homo sapiens, UniProt P26368)
# Chain of UniProt P26368 (whole entry, looked up): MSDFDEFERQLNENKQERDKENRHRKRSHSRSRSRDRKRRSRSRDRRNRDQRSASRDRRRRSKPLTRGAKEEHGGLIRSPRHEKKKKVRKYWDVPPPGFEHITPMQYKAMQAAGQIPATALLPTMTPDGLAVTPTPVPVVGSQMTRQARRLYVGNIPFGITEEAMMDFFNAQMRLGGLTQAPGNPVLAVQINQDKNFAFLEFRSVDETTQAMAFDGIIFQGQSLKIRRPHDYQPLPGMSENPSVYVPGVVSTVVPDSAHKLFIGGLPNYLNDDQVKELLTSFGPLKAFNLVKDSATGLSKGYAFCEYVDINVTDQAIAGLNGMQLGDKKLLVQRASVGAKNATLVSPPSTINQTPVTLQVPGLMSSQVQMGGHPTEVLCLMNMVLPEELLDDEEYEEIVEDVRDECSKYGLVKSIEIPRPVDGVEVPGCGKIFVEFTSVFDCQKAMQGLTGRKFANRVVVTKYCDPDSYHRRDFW
# B1: sequence looked up; chain AARVLIIGSGGREHTLAWKLAQSHHVKQVLVAPGNAGTACSEKISNTAISISDHTALAQFCKEKKIEFVVVGPEAPLAAGIVGNLRSAGVQCFGPTAEAAQLESSKRFAKEFMDRHGIPTAQWKAFTKPEEACSFILSADFPALVVKASGLAAGKGVIVAKSKEEACKAVQEIMQEKAFGAAGETIVIEELLDGEEVSCLCFTDGKTVAPMPPAQDHKRLLEGDGGPNTGGMGAYCPAPQVSNDLLLKIKDTVLQRTVDGMQQEGTPYTGILYAGIMLTKNGPKVLEFNCRFGDPECQVILPLLKSDLYEVIQSTLDGLLCTSLPVWLENHTALTVVMASKGYPGDYTKGVEITGFPEAQALGLEVFHAGTALKNGKVVTHGGRVLAVTAIRENLISALEEAKKGLAAIKFEGAIYRKDVGFRAIAFLQQPRSLTYKESGVDIAAGNMLVKKIQPLAKATSRSGCKVDLGGFAGLFDLKAAGFKDPLLASGTDGVGTKLKIAQLCNKHDTIGQDLVAMCVNDILAQGAEPLFFLDYFSCGKLDLSVTEAVVAGIAKACGKAGCALLGGETAEMPDMYPPGEYDLAGFAVGAMERDQKLPHLERITEGDVVVGIASSGLHSNGFSLVRKIVAKSSLQYSSPAPDGCGDQTLGDLLLTPTRIYSHSLLPVLRSGHVKAFAHITGGGLLENIPRVLPEKLGVDLDAQTWRIPRVFSWLQQEGHLSEEEMARTFNCGVGAVLVVSKEQTEQILRDIQQHKEEAWVIGSVVARAEGSPRVKVKNLIESMQINGSVLKNGSLTNHFSFEKKKARVAVLISGTGSNLQALIDSTREPNSSAQIDIVISNKAAVAGLDKAERAGIPTRVINHKLYKNRVEFDSAIDLVLEEFSIDIVCLAGFMRILSGPFVQKWNGKMLNIHPSLLPSFKGSNAHEQALETGVTVTGCTVHFVAEDVDAGQIILQEAVPVKRGDTVATLSERVKLAEHKIFPAALQLVASGTVQLGENGKICWVKEE
# B2: human AP1B1; sequence looked up; chain MTDSKYFTTTKKGEIFELKAELNSDKKEKKKEAVKKVIASMTVGKDVSALFPDVVNCMQTDNLELKKLVYLYLMNYAKSQPDMAIMAVNTFVKDCEDPNPLIRALAVRTMGCIRVDKITEYLCEPLRKCLKDEDPYVRKTAAVCVAKLHDINAQLVEDQGFLDTLKDLISDSNPMVVANAVAALSEIAESHPSSNLLDLNPQSINKLLTALNECTEWGQIFILDCLANYMPKDDREAQSICERVTPRLSHANSAVVLSAVKVLMKFMEMLSKDLDYYGTLLKKLAPPLVTLLSAEPELQYVALRNINLIVQKRPEILKHEMKVFFVKYNDPIYVKLEKLDIMIRLASQANIAQVLAELKEYATEVDVDFVRKAVRAIGRCAIKVEQSAERCVSTLLDLIQTKVNYVVQEAIVVIKDIFRKYPNKYESVIATLCENLDSLDEPEARAAMIWIVGEYAERIDNADELLESFLEGFHDESTQVQLQLLTAIVKLFLKKPTETQELVQQVLSLATQDSDNPDLRDRGYIYWRLLSTDPVAAKEVVLAEKPLISEETDLIEPTLLDELICYIGTLASVYHKPPSAFVEGGRGVVHKSLPPRTASSESAESPETAPTGAPPGEQPDVIPAQGDLLGDLLNLDLGPPVSGPPLATSSVQMGAVDLLGGGLDSLMGDEPEGIGGTNFVAPPTAAVPANLGAPIGSGLSDLFDLTSGVGTLSGSYVAPKAVWLPAMKAKGLEISGTFTRQVGSISMDLQLTNKALQVMTDFAIQFNRNSFGLAPAAPLQVHAPLSPNQTVEISLPLSTVGSVMKMEPLNNLQVAVKNNIDVFYFSTLYPLHILFVEDGKMDRQMFLATWKDIPNENEAQFQIRDCPLNAEAASSKLQSSNIFTVAKRNVEGQDMLYQSLKLTNGIWVLAELRIQPGNPSCTDLELSLKCRAPEVSQHVYQAYETILKN
# B3: PP6 regulatory subunit 3 (human); sequence looked up; chain MFWKFDLHSSSHIDTLLEREDVTLKELMDEEDVLQECKAQNRKLIEFLLKAECLEDLVSFIIEEPPQDMDEKIRYKYPNISCELLTSDVSQMNDRLGEDESLLMKLYSFLLNDSPLNPLLASFFSKVLSILISRKPEQIVDFLKKKHDFVDLIIKHIGTSAIMDLLLRLLTCIEPPQPRQDVLNWLNEEKIIQRLVEIVHPSQEEDRHSNASQSLCEIVRLSRDQMLQIQNSTEPDPLLATLEKQEIIEQLLSNIFHKEKNESAIVSAIQILLTLLETRRPTFEGHIEICPPGMSHSACSVNKSVLEAIRGRLGSFHELLLEPPKKSVMKTTWGVLDPPVGNTRLNVIRLISSLLQTNTSSINGDLMELNSIGVILNMFFKYTWNNFLHTQVEICIALILASPFENTENATITDQDSTGDNLLLKHLFQKCQLIERILEAWEMNEKKQAEGGRRHGYMGHLTRIANCIVHSTDKGPNSALVQQLIKDLPDEVRERWETFCTSSLGETNKRNTVDLVTTCHIHSSSDDEIDFKETGFSQDSSLQQAFSDYQMQQMTSNFIDQFGFNDEKFADQDDIGNVSFDRVSDINFTLNTNESGNIALFEACCKERIQQFDDGGSDEEDIWEEKHIAFTPESQRRSSSGSTDSEESTDSEEEDGAKQDLFEPSSANTEDKMEVDLSEPPNWSANFDVPMETTHGAPLDSVGSDVWSTEEPMPTKETGWASFSEFTSSLSTKDSLRSNSPVEMETSTEPMDPLTPSAAALAVQPEAAGSVAMEASSDGEEDAESTDKVTETVMNGGMKETLSLTVDAKTETAVFKSEEGKLSTSQDAACKDAEECPETAEAKCAAPRPPSSSPEQRTGQPSAPGDTSVNGPV
# B4: BAG2; sequence looked up; chain AQAKINAKANEGRFCRSSSMADRSSRLLESLDQLELRVEALREAATAVEQEKEILLEMIHSIQNSQDMRQISDGEREELNLTANRLMGRTLTVEVSVETIRNPQQQESLKHATRIIDEVVNKFLDDLGNAKSHLMSLYSACSSEVPHGPVDQKFQSIVIGCALEDQKKIKRRLETLLRNIENSDKAIKLLEHSKGAGSKTLQQNAESRFN
# Chain of UniProt P13393 (whole entry, looked up): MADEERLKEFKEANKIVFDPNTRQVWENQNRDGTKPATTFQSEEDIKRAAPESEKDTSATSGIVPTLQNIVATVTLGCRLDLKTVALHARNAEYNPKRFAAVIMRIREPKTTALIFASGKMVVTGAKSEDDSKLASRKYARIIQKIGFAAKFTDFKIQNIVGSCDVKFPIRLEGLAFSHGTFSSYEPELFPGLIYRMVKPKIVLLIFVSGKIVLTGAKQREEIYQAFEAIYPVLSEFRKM
Molecule,target,assay,test system,setting,scale,quantity,result
GSGAGIESNV,"construct, MBP fusion, human SCRIB, PDZ 3-4",automated holdup,"peptide, crude extract","concentration not given, corrected by standard peak, unit not given","baseline: biotin control resin, higher = stronger binding",binding intensity,0.254
Peginesatide,ERK1 (MAPK3) human,"LC-MS/MS phosphoproteomics, refers to: ERK1 phosphotyrosine site 204",UT7/EPO,"10 nM, 15 min, with: EPO 10 U/mL",baseline: vehicle,phosphorylation fold change,34.9 fold
VVVGACGVGK,HLA-A*11:01 peptide-β2M single-chain trimer,"western blot, refers to: pMHC-I","peptide, 293T cells","18 h, unit not given, with: 100 µg/mL cycloheximide",baseline: time zero,remaining protein,0.798 and 0.807 and 0.803
Triton X-100,HBV core protein Cp149 dimer,solution NMR,,"4 molar equivalents, pH 7.5, 295 K, average over eight residues",baseline: apo Cp149 dimer,average chemical shift perturbation,0.143 ppm
GSGAGKESYV,"construct, MBP fusion, human SCRIB, PDZ 3-4",automated holdup,"peptide, crude extract","concentration not given, corrected by standard peak, unit not given","baseline: biotin control resin, higher = stronger binding",binding intensity,0.311
B1,PP6C (human),"co-immunoprecipitation, IP-MS",CYB5R4 knockout cells,concentration not given,baseline: CYB5R4 knockout over parental,log2 fold change,-1.65
CUUUUCUAU (ssRNA),U2AF2,sequencing of bound RNA,RNA,motif only,,Kd,1020 nM
SVWLRKETRV,"construct, MBP fusion, human SCRIB, PDZ 3-4",automated holdup,"peptide, crude extract","concentration not given, corrected by standard peak, unit not given","baseline: biotin control resin, higher = stronger binding",binding intensity,0.495
Relaxin,RXFP1,AlphaScreen,HEK293 expressing RXFP1,8 pM,,cAMP increase,~2 % above basal
Twinfilin-1 (human),PP6C (human),"co-immunoprecipitation, IP-MS",CYB5R4 knockout cells,concentration not given,baseline: CYB5R4 knockout over parental,log2 fold change,0.32
GSGAGPETLV,"construct, MBP fusion, human SCRIB, PDZ 3-4",automated holdup,"peptide, crude extract","concentration not given, uncorrected, unit not given","baseline: biotin control resin, higher = stronger binding",binding intensity,0.347
B2 (human AP1B1),PP6C (human),"co-immunoprecipitation, IP-MS",CYB5R4 knockout cells,concentration not given,baseline: CYB5R4 knockout over parental,log2 fold change,-1.63
TCCTGAAGGGGCGACTATAAAAGGTCCTATCGTCGTCAAGTCAATCGGTCC (dsDNA; 5'-amino-C6 primer),"SPT15 full length assumed (Saccharomyces cerevisiae, UniProt P13393)",array,"double-stranded DNA, one strand shown",TBP alone,,Kd,1.21 ± 0.06 nM
B3 (PP6 regulatory subunit 3),PP6C (human),"co-immunoprecipitation, IP-MS",CYB5R4 knockout cells,concentration not given,baseline: CYB5R4 knockout over parental,log2 fold change,-0.79
FVTI,mouse H2-Dd/human β2m,"thermal stability rescue, DSF",peptide,"20-fold molar excess, pH 7.2, peptide-deficient, UV-irradiated",,Tm,35.2 ± 0.2 °C
B4 (BAG2),PP6C (human),"co-immunoprecipitation, IP-MS",CYB5R4 knockout cells,concentration not given,baseline: CYB5R4 knockout over parental,log2 fold change,0.73
GEMVGQARILAQATSDLVNAIKDA,vinculin head domain Vd1,"complex rupture, AFM single-molecule force spectroscopy",peptide,"single traces, N-terminal pulling, 800 nm/s",,mean rupture force,48.2 pN
CUUCAUUAU (ssRNA),U2AF2,sequencing of bound RNA,RNA,motif only,,Kd,3750 nM
VVVGASGVGK,HLA-A*11:01 peptide-β2M single-chain trimer,"western blot, refers to: pMHC-I","peptide, 293T cells","60 h, unit not given, with: 100 µg/mL cycloheximide",baseline: time zero,remaining protein,0.447 and 0.47 and 0.424
human hornerin,PP6C (human),"co-immunoprecipitation, IP-MS",CYB5R4 knockout cells,concentration not given,baseline: CYB5R4 knockout over parental,log2 fold change,-0.46
KDECVIATEV,"construct, MBP fusion, human SCRIB, PDZ 3-4",surface plasmon resonance,peptide,concentration not given,higher = stronger binding,normalised SPR binding response,35.9 normalised RU
